# Results from different studies.
# Compare with care: the assays were run in different laboratories. ± marks the error that the study gave.
# Organism: Pseudomonas aeruginosa
Compound,assay,test system,conditions,scale,endpoint,result
CC[C@H](C)[C@H](NC(=O)[C@H](CCCNC(=N)N)NC(=O)[C@H](Cc1c[nH]c2ccccc12)NC(=O)[C@H](CCCNC(=N)N)NC(=O)[C@@H](N)CCCCN)C(=O)N[C@@H](CCCNC(=N)N)C(=O)N[C@H](C(=O)N[C@@H](CCCNC(=N)N)C(=O)N[C@H](C(=O)N[C@H](C(=O)N[C@@H](CCCNC(=N)N)C(=O)N[C@@H](CCCCN)C(=O)N[C@@H](CS)C(=O)O)[C@@H](C)CC)C(C)C)C(C)C,,ATCC 27853,"90, 300, 500 µM, 24 h, biofilm",,MBEC,300 µM
CC[C@H](C)[C@H](NC(=O)[C@H](C)NC(=O)[C@@H](NC(=O)[C@H](C)NC(=O)CN)[C@@H](C)O)C(=O)N[C@@H](CCCCN)C(=O)N[C@@H](CCC(N)=O)C(=O)N[C@H](C(=O)N[C@@H](CCCCN)C(=O)N[C@@H](CCCCN)C(=O)N[C@@H](CC(C)C)C(=O)N[C@@H](Cc1ccccc1)C(=O)N[C@@H](CCCCN)C(=O)N[C@@H](CCCCN)C(=O)N[C@@H](CCCCN)C(=O)NCC(=O)NCC(N)=O)C(C)C,,ATCC 9027,"24 h, 37 °C",,MBC,> 620 µM
CC[C@H](C)[C@H](N)C(=O)N[C@@H](CC(C)C)C(=O)N1CCC[C@H]1C(=O)N[C@@H](Cc1c[nH]c2ccccc12)C(=O)N[C@@H](CCCCN)C(=O)N[C@@H](Cc1c[nH]c2ccccc12)C(=O)N1CCC[C@H]1C(=O)N[C@@H](Cc1c[nH]c2ccccc12)C(=O)N[C@@H](Cc1c[nH]c2ccccc12)C(=O)N1CCC[C@H]1C(=O)N[C@@H](Cc1c[nH]c2ccccc12)C(=O)N[C@@H](CCCNC(=N)N)C(=O)N[C@@H](CCCNC(=N)N)C(N)=O,broth microdilution,,"18 h, 10 clinical isolates",,MIC90,64 mg/L
CC[C@H](C)CCCCC(=O)N[C@@H](CCN)C(=O)N[C@H](C(=O)N[C@@H](CCN)C(=O)N[C@H]1CCNC(=O)[C@H]([C@@H](C)O)NC(=O)[C@H](CCN)NC(=O)[C@H](CCN)NC(=O)[C@H](CC(C)C)NC(=O)[C@@H](CC(C)C)NC(=O)[C@H](CCN)NC1=O)[C@@H](C)O,,"PAO1 vacJ mutant, cation-adjusted Mueller-Hinton broth",,relative to: vacJ mutant over wild type,MIC decrease,2 fold
CC(C)C[C@H](NC(=O)[C@H](C)NC(=O)[C@H](CCCCN)NC(=O)[C@H](Cc1c[nH]c2ccccc12)NC(=O)[C@H](CC(C)C)NC(=O)[C@H](CC(C)C)NC(=O)[C@H](C)NC(=O)[C@@H]1CCCN1C(=O)[C@H](CCCCN)NC(=O)[C@H](C)NC(=O)[C@H](CC(C)C)NC(=O)[C@H](C)NC(=O)[C@H](CC(C)C)NC(=O)[C@H](CCCCN)NC(=O)[C@H](CC(C)C)NC(=O)[C@H](CCCCN)NC(=O)[C@@H](N)CCCCN)C(=O)N[C@@H](C)C(=O)N[C@@H](CC(C)C)C(=O)N[C@@H](CCCCN)C(=O)N[C@@H](CC(C)C)C(=O)N[C@@H](CCCCN)C(=O)N[C@@H](CCCCN)C(=O)N[C@@H](C)C(N)=O,broth microdilution,PAO1,"overnight, 37 °C",,MIC50,4.14 ± 0.23 µM
CC[C@H](C)[C@H](NC(=O)[C@H](C)NC(=O)[C@@H](NC(=O)[C@H](C)NC(=O)CNC(=O)[C@H](CCSC)NC(=O)[C@H](CCC(N)=O)NC(=O)[C@H](CC(C)C)NC(=O)[C@H](CO)NC(=O)[C@@H](N)Cc1ccc(O)cc1)[C@@H](C)O)C(=O)N[C@@H](CCCCN)C(=O)N[C@@H](CCC(N)=O)C(=O)N[C@H](C(=O)N[C@@H](CCCCN)C(=O)N[C@@H](CCCCN)C(=O)N[C@@H](CC(C)C)C(=O)N[C@@H](Cc1ccccc1)C(=O)N[C@@H](CCCCN)C(=O)N[C@@H](CCCCN)C(=O)N[C@@H](CCCCN)C(=O)NCC(=O)NCC(N)=O)C(C)C,,ATCC 9027,"24 h, 37 °C",,MBC,310 µM
CC(C)C[C@H](NC(=O)[C@H](C)NC(=O)[C@H](CC(C)C)NC(=O)[C@H](CCCCN)NC(=O)[C@H](CC(C)C)NC(=O)[C@H](CCCCN)NC(=O)[C@@H](N)CCCCN)C(=O)N[C@@H](C)C(=O)N[C@@H](CCCCN)C(=O)N[C@@H](CC(C)C)C(=O)N[C@@H](C)C(=O)N1CCC[C@H]1C(=O)N[C@@H](CC(C)C)C(=O)N[C@@H](Cc1c[nH]c2ccccc12)C(=O)N[C@@H](CCCCN)C(=O)N[C@@H](C)C(=O)N[C@@H](CC(C)C)C(=O)N[C@@H](C)C(=O)N[C@@H](CC(C)C)C(=O)N[C@@H](CCCCN)C(=O)N[C@@H](CC(C)C)C(=O)N[C@@H](CCCCN)C(=O)N[C@@H](CCCCN)C(=O)N[C@@H](C)C(N)=O,broth microdilution,PAO1,"overnight, 37 °C",,MIC50,1.69 ± 0.09 µM
CC[C@H](C)[C@H](NC(=O)[C@H](C)NC(=O)[C@@H](NC(=O)[C@H](C)NC(=O)CNC(C)=O)[C@@H](C)O)C(=O)N[C@@H](CCCCN)C(=O)N[C@@H](CCC(N)=O)C(=O)N[C@H](C(=O)N[C@@H](CCCCN)C(=O)N[C@@H](CCCCN)C(=O)N[C@@H](CC(C)C)C(=O)N[C@@H](Cc1ccccc1)C(=O)N[C@@H](CCCCN)C(=O)N[C@@H](CCCCN)C(=O)N[C@@H](CCCCN)C(=O)NCC(=O)NCC(N)=O)C(C)C,,ATCC 9027,"24 h, 37 °C",,MBC,> 620 µM
CC(C)C[C@H](NC(=O)[C@H](C)NC(=O)[C@H](CC(C)C)NC(=O)[C@H](CCCCN)NC(=O)[C@H](CCCCN)NC(=O)[C@H](Cc1c[nH]c2ccccc12)NC(=O)[C@H](CC(C)C)NC(=O)[C@H](CC(C)C)NC(=O)[C@H](C)NC(=O)[C@H](CC(C)C)NC(=O)[C@H](CCCCN)NC(=O)[C@H](CCCCN)NC(=O)[C@@H]1CCCN1C(=O)[C@H](C)NC(=O)[C@H](CC(C)C)NC(=O)[C@H](C)NC(=O)[C@H](CC(C)C)NC(=O)[C@H](CCCCN)NC(=O)[C@@H](N)CCCCN)C(=O)N[C@@H](C)C(=O)N[C@@H](CC(C)C)C(=O)N[C@@H](CCCCN)C(=O)N[C@@H](CCCCN)C(=O)N[C@@H](C)C(N)=O,broth microdilution,PAO1,"overnight, 37 °C",,MIC50,4.45 ± 0.19 µM
C[C@@H](O)[C@H]1C(=O)N2C(C(=O)O)=C(S[C@@H]3CN[C@H](C(=O)N(C)C)C3)[C@H](C)[C@H]12,,drug-resistant,"32 µg/mL, with: TS-CATH 16 µg/mL",,time to complete kill,8 h
CC(C)C[C@H](NC(=O)[C@H](C)NC(=O)[C@H](CC(C)C)NC(=O)[C@H](CCCCN)NC(=O)[C@H](CCCCN)NC(=O)[C@H](Cc1c[nH]c2ccccc12)NC(=O)[C@H](CC(C)C)NC(=O)[C@H](CC(C)C)NC(=O)[C@H](C)NC(=O)[C@@H]1CCCN1C(=O)[C@H](CCCCN)NC(=O)[C@H](CCCCN)NC(=O)[C@H](CC(C)C)NC(=O)[C@H](C)NC(=O)[C@H](CC(C)C)NC(=O)[C@H](C)NC(=O)[C@H](CC(C)C)NC(=O)[C@H](CCCCN)NC(=O)[C@@H](N)CCCCN)C(=O)N[C@@H](C)C(=O)N[C@@H](CC(C)C)C(=O)N[C@@H](CCCCN)C(=O)N[C@@H](CCCCN)C(=O)N[C@@H](C)C(N)=O,broth microdilution,PAO1,"overnight, 37 °C",,MIC50,9.16 ± 1.43 µM
O=C(O)c1cn(C2CC2)c2cc(N3CCNCC3)c(F)cc2c1=O,,"ATCC 19429, Galleria mellonella larvae","5 µg single dose, given immediately after infection",,survival,60%

# Excerpt of the above:
Compound,assay,test system,conditions,scale,endpoint,result
CC(C)C[C@H](NC(=O)[C@H](C)NC(=O)[C@H](CC(C)C)NC(=O)[C@H](CCCCN)NC(=O)[C@H](CCCCN)NC(=O)[C@H](Cc1c[nH]c2ccccc12)NC(=O)[C@H](CC(C)C)NC(=O)[C@H](CC(C)C)NC(=O)[C@H](C)NC(=O)[C@H](CC(C)C)NC(=O)[C@H](CCCCN)NC(=O)[C@H](CCCCN)NC(=O)[C@@H]1CCCN1C(=O)[C@H](C)NC(=O)[C@H](CC(C)C)NC(=O)[C@H](C)NC(=O)[C@H](CC(C)C)NC(=O)[C@H](CCCCN)NC(=O)[C@@H](N)CCCCN)C(=O)N[C@@H](C)C(=O)N[C@@H](CC(C)C)C(=O)N[C@@H](CCCCN)C(=O)N[C@@H](CCCCN)C(=O)N[C@@H](C)C(N)=O,broth microdilution,PAO1,"overnight, 37 °C",,MIC50,4.45 ± 0.19 µM
